Measurements from different studies.
Each line is one published result; not all experiments were run side by side.
Target: Calcium/calmodulin-dependent protein kinase kinase 2 (CAMKK2, Homo sapiens, UniProt Q96RR4)
Sequence of UniProt Q96RR4 (whole entry, looked up): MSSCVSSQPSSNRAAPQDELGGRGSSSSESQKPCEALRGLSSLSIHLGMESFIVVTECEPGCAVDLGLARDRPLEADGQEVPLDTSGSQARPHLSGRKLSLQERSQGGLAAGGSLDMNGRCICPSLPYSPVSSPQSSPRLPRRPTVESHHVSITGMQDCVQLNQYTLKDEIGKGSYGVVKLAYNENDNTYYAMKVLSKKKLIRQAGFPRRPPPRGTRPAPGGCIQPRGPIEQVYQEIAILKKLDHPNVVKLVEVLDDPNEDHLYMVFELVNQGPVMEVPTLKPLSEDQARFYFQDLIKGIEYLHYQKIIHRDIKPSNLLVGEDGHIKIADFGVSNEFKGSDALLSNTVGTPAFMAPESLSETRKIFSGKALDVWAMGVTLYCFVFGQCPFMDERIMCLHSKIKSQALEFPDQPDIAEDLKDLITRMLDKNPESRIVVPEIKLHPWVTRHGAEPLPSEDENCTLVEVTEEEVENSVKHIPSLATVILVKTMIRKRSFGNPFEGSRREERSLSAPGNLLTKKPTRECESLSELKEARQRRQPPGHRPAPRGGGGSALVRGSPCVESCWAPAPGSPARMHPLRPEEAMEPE

SMILES = CCn1cc(C(=O)O)c(=O)c2c(N)c(F)c(NC3CCCCC3)cc21; test = kinase activity; setting = 0.1 µM, added: ATP at Km; endpoint = inhibition; result = -4.3%
SMILES = O=C(Cc1ccc(OCc2ccccc2)cc1)NC1(C(=O)O)CCN(C(=O)c2ccc(-c3cccc(Cl)c3)cc2)CC1; test = enzyme activity, inhibitor; setting = 10 µM; endpoint = activity vs control; result = 108%
SMILES = CS(=O)(=O)Nc1cccc(-c2csc3cnc(Nc4ccc(N5CCN(CCCCCOc6cccc7c6C(=O)N(C6CCC(=O)NC6=O)C7=O)CC5)cc4)nc23)c1 (centres unmarked); test = probe labelling, inhibitor, KiNativ chemoproteomics; test system = MOLT-4; setting = 1 µM; endpoint = inhibition; result = -8.83%
SMILES = C=CC(=O)N1CCCC(n2c(=O)c3ncccc3n(Cc3ccc(Oc4ccccc4)cc3)c2=O)C1 (centres unmarked); test = cell-free assay, competition with immobilised ligand; setting = 1 µM; endpoint = remaining binding; result = 100%
SMILES = Nc1nc(Nc2ccccc2)sc1C(=O)c1ccccc1; test = enzyme activity, inhibitor; setting = 10 µM; endpoint = remaining activity; result = 15%
SMILES = Nc1ncc(-c2cc(-c3cnn(CC(F)(F)F)c3)ncc2F)nc1C(=O)NC1CNCC(F)C1 (centres unmarked); test = enzyme activity; setting = 1 µM; scale = baseline: DMSO control; endpoint = remaining activity; result = 95.3%
SMILES = NC(=O)[C@@H](O)C[C@H]1CCc2sc3ncnc(O[C@H]4CC[C@H](N5CCOCC5)CC4)c3c21; test = enzyme activity, inhibitor; setting = 10 µM; endpoint = inhibition; result = 27%
SMILES = Cc1ccc(-c2c(/C=C(\C#N)C(=O)NC(C)C)n(CCCO)c3ncnc(N)c23)cc1; test = cell-free assay, competition with immobilised ligand; setting = 1 µM; endpoint = remaining binding; result = 100%
SMILES = Cc1ccc(C)c(-c2ccc3nc(NC(=O)C4CCCCC4)nn3c2)c1; test = enzyme activity, Dundee kinase panel; setting = 10 µM; endpoint = remaining activity; result = 45%
SMILES = COc1cc(Nc2nccc(-c3cnn4nc(OC)ccc34)n2)cc(C(F)(F)F)c1; test = binding, competition with immobilised ligand; setting = 1 µM; endpoint = remaining binding; result = 90%
SMILES = CCN1CCN(Cc2ccc(C(=O)Nc3ccc(C)c(NCc4cnc5[nH]ccc5c4OC)c3)cc2C(F)(F)F)CC1; test = binding, competition with immobilised ligand; setting = 1 µM; endpoint = remaining binding; result = 96%
SMILES = CC(C)=CC1OC(C)(C)C2C=C3C(=O)C(Cl)=CC(O)C3C3C(O)C4OC4C(=O)C132 (centres unmarked); test = cell-free assay, competition with immobilised ligand; setting = 10 µM; endpoint = remaining binding; result = 82%
SMILES = Cc1cccc(-c2ccc3nc(NC(=O)C4CCCCC4)nn3c2)c1; test = enzyme activity, Dundee kinase panel; setting = 10 µM; endpoint = remaining activity; result = 47%
SMILES = C=CC(=O)N1CCc2ccc(-n3c(=O)ccc4cnc5ccc(-c6cnn(C)c6)cc5c43)cc21; test = KINOMEscan; setting = 1 µM; scale = baseline: DMSO control; endpoint = remaining binding; result = 95%
